Published values gathered from unrelated publications.
Each line is one published result; not all experiments were run side by side. Several values in a cell are separate wells, animals, samples, runs or records. ± marks the error that the study gave.
KCNH2: Voltage-gated inwardly rectifying potassium channel KCNH2 (KCNH2, Homo sapiens, UniProt Q12809)
CYP2C19: Cytochrome P450 2C19 (CYP2C19, Homo sapiens, UniProt P33261)
ALDH1A2: Retinal dehydrogenase 2 (ALDH1A2, Homo sapiens, UniProt O94788)
CYP3A4: Cytochrome P450 3A4 (CYP3A4, Homo sapiens, UniProt P08684)
CYP2C9: Cytochrome P450 2C9 (CYP2C9, Homo sapiens, UniProt P11712)
ABCB1: ATP-dependent translocase ABCB1 (ABCB1, Homo sapiens, UniProt P08183)
AHR: Aryl hydrocarbon receptor (AHR, Homo sapiens, UniProt P35869)
CYP2D6: Cytochrome P450 2D6 (CYP2D6, Homo sapiens, UniProt P10635)

Amino acid sequences for entries named in this document (tags omitted). Residues count along the entry.
UniProt Q12809, whole entry: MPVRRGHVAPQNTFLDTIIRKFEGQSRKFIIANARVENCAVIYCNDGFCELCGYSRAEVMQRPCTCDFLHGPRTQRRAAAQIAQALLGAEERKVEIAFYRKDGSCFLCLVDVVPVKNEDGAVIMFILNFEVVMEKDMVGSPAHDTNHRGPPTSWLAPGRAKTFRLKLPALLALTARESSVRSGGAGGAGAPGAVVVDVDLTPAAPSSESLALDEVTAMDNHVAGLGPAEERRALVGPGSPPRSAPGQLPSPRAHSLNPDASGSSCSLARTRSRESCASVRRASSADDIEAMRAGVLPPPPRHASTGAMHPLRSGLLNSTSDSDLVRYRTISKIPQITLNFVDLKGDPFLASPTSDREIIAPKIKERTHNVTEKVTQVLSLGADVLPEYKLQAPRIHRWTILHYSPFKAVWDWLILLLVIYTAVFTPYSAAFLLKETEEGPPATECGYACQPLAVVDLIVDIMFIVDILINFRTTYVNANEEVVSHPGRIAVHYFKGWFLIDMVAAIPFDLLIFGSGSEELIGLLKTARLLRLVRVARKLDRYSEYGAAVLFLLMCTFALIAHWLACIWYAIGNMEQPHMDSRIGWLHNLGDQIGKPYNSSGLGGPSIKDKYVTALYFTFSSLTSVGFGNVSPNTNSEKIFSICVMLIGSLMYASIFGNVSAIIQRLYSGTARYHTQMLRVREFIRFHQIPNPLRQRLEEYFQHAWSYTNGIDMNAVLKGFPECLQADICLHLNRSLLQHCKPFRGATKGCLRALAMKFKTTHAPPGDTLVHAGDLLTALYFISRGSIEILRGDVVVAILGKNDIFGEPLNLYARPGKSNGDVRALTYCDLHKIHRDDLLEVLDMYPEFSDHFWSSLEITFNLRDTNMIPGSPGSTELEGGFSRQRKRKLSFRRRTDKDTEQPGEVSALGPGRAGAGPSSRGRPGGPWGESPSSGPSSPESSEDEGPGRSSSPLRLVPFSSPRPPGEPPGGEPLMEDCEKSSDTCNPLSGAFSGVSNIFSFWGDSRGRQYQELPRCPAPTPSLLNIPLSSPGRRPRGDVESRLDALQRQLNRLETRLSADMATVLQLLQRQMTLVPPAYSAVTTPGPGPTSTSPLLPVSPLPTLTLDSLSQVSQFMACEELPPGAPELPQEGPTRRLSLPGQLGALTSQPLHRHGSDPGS
UniProt O94788, whole entry: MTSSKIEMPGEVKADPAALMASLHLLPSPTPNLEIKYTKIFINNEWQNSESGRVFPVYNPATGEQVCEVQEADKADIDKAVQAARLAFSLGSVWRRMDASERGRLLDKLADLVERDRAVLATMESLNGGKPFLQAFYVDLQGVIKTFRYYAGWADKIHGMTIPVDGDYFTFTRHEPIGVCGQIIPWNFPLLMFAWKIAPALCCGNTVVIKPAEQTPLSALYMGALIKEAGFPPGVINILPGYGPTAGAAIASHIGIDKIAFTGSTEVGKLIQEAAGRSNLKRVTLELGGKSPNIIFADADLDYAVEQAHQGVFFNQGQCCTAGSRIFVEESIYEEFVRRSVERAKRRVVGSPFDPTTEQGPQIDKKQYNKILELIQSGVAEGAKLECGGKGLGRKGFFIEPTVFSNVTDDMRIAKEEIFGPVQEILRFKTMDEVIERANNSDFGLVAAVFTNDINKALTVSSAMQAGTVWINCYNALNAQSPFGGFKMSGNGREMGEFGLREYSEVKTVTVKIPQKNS
UniProt P08684, whole entry: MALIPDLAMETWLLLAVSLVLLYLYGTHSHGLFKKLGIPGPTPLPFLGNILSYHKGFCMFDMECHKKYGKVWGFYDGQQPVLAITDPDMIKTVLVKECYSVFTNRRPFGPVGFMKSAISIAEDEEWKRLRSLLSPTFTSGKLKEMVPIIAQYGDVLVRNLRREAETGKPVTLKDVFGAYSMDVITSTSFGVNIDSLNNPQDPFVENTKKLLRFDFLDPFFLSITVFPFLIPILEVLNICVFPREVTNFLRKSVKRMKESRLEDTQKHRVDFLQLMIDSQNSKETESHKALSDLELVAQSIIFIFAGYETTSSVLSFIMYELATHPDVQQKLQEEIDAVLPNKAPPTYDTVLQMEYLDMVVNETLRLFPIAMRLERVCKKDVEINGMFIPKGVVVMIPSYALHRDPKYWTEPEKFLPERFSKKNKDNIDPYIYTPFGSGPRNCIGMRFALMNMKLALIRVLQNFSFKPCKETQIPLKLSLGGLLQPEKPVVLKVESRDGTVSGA
UniProt P11712, whole entry: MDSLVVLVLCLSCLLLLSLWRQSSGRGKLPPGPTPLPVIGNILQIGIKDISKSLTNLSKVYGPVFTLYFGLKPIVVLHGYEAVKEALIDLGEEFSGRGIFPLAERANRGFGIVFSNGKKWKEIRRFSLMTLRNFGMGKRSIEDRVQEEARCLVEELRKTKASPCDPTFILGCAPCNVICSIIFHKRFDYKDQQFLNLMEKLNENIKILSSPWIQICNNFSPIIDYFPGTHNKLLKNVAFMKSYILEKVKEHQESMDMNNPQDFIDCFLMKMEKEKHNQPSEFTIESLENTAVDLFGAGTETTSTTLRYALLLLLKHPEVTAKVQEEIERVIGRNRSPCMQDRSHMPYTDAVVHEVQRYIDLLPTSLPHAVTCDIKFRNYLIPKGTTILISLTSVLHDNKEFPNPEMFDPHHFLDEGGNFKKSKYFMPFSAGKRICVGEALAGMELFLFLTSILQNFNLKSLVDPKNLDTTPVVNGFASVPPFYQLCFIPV
UniProt P08183, whole entry: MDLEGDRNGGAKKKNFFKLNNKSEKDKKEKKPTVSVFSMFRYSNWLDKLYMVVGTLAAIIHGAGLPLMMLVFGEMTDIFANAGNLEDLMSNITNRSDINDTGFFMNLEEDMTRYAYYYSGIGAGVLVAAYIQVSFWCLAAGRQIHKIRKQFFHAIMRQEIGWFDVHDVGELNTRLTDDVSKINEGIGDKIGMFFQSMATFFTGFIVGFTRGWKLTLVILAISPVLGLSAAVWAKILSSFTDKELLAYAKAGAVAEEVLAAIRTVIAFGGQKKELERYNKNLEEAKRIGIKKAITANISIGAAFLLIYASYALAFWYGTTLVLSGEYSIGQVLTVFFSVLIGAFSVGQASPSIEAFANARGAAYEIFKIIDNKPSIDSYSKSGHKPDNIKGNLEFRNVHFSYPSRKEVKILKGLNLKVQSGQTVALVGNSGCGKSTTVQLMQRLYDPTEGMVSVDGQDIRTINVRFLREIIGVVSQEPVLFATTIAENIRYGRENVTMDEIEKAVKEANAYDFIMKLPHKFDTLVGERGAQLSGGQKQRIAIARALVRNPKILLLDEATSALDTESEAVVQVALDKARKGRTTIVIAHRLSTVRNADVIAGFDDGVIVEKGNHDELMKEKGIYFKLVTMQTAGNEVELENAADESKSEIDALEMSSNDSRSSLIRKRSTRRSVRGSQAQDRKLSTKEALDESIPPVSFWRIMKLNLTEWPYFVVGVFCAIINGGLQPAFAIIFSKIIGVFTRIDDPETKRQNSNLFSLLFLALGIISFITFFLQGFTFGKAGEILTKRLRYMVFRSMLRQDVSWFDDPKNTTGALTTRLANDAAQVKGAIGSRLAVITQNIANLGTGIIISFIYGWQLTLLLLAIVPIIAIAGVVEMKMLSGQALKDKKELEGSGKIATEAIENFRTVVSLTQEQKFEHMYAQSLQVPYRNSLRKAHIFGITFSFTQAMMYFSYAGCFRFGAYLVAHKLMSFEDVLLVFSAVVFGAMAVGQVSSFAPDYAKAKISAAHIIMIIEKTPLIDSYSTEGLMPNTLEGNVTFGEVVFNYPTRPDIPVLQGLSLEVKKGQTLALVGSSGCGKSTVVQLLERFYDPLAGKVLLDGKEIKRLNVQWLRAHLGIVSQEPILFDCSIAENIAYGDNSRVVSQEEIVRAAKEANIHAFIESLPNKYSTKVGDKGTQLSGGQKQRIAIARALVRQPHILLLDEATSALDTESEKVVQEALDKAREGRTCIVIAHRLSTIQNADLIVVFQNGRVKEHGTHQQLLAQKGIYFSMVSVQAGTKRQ
UniProt P10635, whole entry: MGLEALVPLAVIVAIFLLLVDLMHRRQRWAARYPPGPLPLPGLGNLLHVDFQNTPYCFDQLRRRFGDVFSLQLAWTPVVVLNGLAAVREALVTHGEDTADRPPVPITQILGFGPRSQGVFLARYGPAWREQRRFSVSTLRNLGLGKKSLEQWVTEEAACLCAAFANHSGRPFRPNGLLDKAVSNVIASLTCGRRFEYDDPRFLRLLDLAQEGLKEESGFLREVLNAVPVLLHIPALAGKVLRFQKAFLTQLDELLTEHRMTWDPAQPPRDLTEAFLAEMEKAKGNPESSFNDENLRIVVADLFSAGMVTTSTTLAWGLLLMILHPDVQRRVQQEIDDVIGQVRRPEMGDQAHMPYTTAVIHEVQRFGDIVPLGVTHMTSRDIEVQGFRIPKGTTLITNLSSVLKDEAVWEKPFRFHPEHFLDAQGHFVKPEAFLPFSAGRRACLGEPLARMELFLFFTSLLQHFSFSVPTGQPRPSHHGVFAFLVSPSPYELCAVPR
UniProt P46934, whole entry, looked up: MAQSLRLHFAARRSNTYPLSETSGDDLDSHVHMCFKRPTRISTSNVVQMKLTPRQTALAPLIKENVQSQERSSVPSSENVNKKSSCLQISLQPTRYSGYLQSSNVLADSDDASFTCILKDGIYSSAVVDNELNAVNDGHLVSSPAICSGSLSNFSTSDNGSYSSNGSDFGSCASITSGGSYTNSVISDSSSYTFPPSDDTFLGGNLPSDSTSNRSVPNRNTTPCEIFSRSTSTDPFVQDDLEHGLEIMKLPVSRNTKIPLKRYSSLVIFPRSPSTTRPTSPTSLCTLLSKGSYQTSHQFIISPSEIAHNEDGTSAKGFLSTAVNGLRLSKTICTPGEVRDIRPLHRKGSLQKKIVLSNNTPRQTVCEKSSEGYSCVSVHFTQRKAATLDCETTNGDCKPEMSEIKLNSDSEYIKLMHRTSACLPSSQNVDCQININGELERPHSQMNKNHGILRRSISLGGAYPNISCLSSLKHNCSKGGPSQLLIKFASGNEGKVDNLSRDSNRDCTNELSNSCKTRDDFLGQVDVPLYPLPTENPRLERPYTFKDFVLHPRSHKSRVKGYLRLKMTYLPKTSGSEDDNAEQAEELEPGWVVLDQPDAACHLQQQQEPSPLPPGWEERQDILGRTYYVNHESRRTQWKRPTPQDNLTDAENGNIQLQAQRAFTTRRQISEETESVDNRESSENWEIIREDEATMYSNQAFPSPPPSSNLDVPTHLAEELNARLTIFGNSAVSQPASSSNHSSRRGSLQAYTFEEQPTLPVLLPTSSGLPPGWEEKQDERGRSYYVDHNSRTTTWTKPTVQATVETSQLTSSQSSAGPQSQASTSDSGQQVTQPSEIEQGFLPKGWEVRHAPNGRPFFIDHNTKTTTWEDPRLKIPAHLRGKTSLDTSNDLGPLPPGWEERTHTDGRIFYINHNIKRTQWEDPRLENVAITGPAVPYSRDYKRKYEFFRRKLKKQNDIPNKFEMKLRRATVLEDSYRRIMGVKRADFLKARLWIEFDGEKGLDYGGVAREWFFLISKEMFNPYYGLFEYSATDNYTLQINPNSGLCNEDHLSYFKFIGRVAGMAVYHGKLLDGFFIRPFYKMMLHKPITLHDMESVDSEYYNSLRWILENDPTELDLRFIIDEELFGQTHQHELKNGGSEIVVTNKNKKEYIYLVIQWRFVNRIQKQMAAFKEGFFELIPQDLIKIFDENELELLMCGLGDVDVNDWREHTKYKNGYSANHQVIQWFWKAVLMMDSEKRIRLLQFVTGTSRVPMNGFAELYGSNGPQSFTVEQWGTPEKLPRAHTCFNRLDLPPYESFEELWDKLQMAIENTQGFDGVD
UniProt P53779, 1-422 isoform 2: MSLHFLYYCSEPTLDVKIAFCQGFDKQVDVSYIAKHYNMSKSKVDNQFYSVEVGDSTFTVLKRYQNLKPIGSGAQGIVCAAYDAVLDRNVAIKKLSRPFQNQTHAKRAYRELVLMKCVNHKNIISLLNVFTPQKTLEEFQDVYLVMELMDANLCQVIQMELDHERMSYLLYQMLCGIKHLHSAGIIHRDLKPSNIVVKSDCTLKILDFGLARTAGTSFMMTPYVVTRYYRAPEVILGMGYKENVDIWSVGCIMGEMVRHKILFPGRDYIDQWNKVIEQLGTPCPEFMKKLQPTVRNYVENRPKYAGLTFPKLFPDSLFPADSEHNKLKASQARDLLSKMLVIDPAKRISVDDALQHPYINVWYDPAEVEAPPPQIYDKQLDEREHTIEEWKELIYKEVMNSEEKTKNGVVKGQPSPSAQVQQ

O=C1CN(/N=C/c2ccc(-c3ccc(Cl)cc3)o2)C(=O)N1CCCCN1CCN(CCCCN2C(=O)c3cccc4cccc(c34)C2=O)CC1 — Ki (KCNH2): 130 nM
COc1ccc(CC(=O)OCc2ccc(-n3cccn3)cc2)cc1F — inhibition (CYP2C19; inhibitor; 10 µM): 7.7%
CCOC(=O)/C=C/CNCCCCN1c2ccccc2CCc2ccc(Cl)cc21 — ubiquitination TR-FRET signal AUC (E3 ubiquitin-protein ligase NEDD4 (Homo sapiens, UniProt P46934); inhibitor, Ub-TR-FRET; 0.01524 µM, 1 h preincubation, HECT domain, added: ATP 2 mM; higher = more ubiquitination): 147000 a.u. and 96900 a.u. and 91700 a.u. and 146000 a.u. and 90900 a.u. and 143000 a.u.
O=C1CN(/N=C/c2ccc(-c3ccc(Cl)cc3)o2)C(=O)N1CCCCN1CCN(CCCN2C(=O)c3cccc4cccc(c34)C2=O)CC1 — Ki (KCNH2): 80 nM
CCCn1c(NCc2cccc(Cl)c2O)nc2ccccc21 — EC50 (ALDH1A2; enzyme activity, inhibitor, NADH absorbance 340 nm; pH 7.5, 25 °C, 200 µM NAD+, added: 100 µM propionaldehyde): 240 ± 57 nM
CC(C)c1ccc(NC(=O)C2CC3CCC2C3)cc1 (stereo not drawn) — IC50 (CYP3A4; enzyme activity, inhibitor): > 25000 nM
CC(=O)Nc1ccc2c3c(cccc13)C(=O)N(CCCCN1CCN(CCCCN3C(=O)CN(/N=C/c4ccc(-c5ccc(Cl)cc5)o4)C3=O)CC1)C2=O — fluorescence enhancement (KCNH2; probe binding; 10 µM; reference: probe without hERG): ~10 fold
CCOC(=O)COC(=O)[C@@H]1C(C=O)=Cc2cc3c(cc2[C@H]1c1cc(OC)c(OC)c(OC)c1)OCO3 — selectivity index (Leishmania; mouse splenocytes; reference: CC50 over amastigote EC50): > 23.4
COc1ccc(NC(=O)CN2CCCN(S(=O)(=O)c3ccccc3)CC2)c(OC)c1 — IC50 (CYP2C9; enzyme activity, inhibitor): 2900 nM
C[N+](C)=c1ccc2c(-c3ccccc3)c3ccc(N)cc3sc-2c1 — Km (ABCB1; ATPase activity, substrate; half-maximal ATPase stimulation): 9.3 ± 1 µM
COc1cccc(C(=O)c2c[nH]c3ccccc23)n1 — EC50 (AHR; reporter gene, agonist; HepG2 transfected XRE-luciferase; 4.5 h): 120 nM
COc1ccc(NC(=O)CN2CCCN(S(=O)(=O)c3ccc(C)cc3)CC2)c(OC)c1 — IC50 (CYP2D6; enzyme activity, inhibitor): 13900 nM
Cc1ccc(NC(=O)C2CC3CCC2C3)c(C)c1 (stereo not drawn) — IC50 (CYP2C9; enzyme activity, inhibitor): > 30000 nM
COc1cc(C(=O)c2c[nH]c3ccccc23)ccn1 — EC50 (AHR; reporter gene, agonist; HepG2 transfected XRE-luciferase; 4.5 h): 2600 nM
COc1ccc(NC(=O)CN2CCCN(S(=O)(=O)c3cccs3)CC2)c(OC)c1 — IC50 (CYP3A4; enzyme activity, inhibitor): 7400 nM
COC(=O)c1cccc(C(=O)c2cn(C)c3ccccc23)n1 — EC50 (AHR; reporter gene, agonist; HepG2 transfected XRE-luciferase; 4.5 h): 329 nM
OCC1Nc2ccc(Cl)cc2C(C#CC2CC2)(C(F)(F)F)O1 (stereo not drawn) — Km (Cytochrome P450 2B6 (CYP2B6, Homo sapiens, UniProt P20813); product formation, substrate, cDNA-expressed enzyme): 1.4 ± 0.76 µM
Cc1cccc(NC(=O)C2CC3CCC2C3)c1C (stereo not drawn) — IC50 (CYP2C9; enzyme activity, inhibitor): > 30000 nM
Cc1nc(-c2ccc(C(F)(F)F)c(F)c2)sc1COc1ccc(SCC(=O)O)cc1 — CC50 (HEK293T; 18 h): > 100000 nM
CNCCNC(=O)c1cc2c([nH]c3c(C)cccc32)c(-c2ccc(Cl)c(Cl)c2)n1 — IC50 (KCNH2; ion current, inhibitor): 2040 nM
COc1ccc(S(=O)(=O)N2CCCN(CC(=O)Nc3ccc(OC)cc3OC)CC2)cc1 — IC50 (CYP3A4; enzyme activity, inhibitor): 4200 nM
Cc1ncsc1-c1ccc([C@H](C)NC(=O)[C@@H]2C[C@@H](O)CN2C(=O)[C@@H](NC(=O)CCCCCCC(=O)N2CCN(C[C@]3(C)CCC(c4ccc(Cl)cc4)=C(CN4CCN(c5ccc(C(=O)NS(=O)(=O)c6ccc(N[C@H](CCN7CCOCC7)CSc7ccccc7)c(S(=O)(=O)C(F)(F)F)c6)cc5)CC4)C3)CC2)C(C)(C)C)cc1 — mRNA level (measured: Cdkn2a; naturally aged mice, spleen; intraperitoneal, 5 mg/kg every 3 days): decreased
CN(C)c1ccc2c3c(cccc13)C(=O)N(CCN1CCN(CCCCN3C(=O)CN(/N=C/c4ccc(-c5ccc(Cl)cc5)o4)C3=O)CC1)C2=O — Ki (KCNH2): 123 nM
CNCCNC(=O)c1cc2c([nH]c3ccccc32)c(-c2cc(Cl)c(Cl)c(Cl)c2)n1 — IC50 (KCNH2; ion current, inhibitor): 1600 nM
COC(=O)[C@@]1(C)C=C(C(=O)Nc2cccc(C(=O)NC34CC(Nc5nccc(-c6cccnc6)n5)(C3)C4)c2)C(=O)CC1 — remaining activity (MAPK10 (Homo sapiens, UniProt P53779); enzyme activity, inhibitor; 0.02032 µM): 0.574 fraction of control
CCCn1c(NCc2cccc(OC)c2O)nc2ccccc21 — EC50 (ALDH1A2; enzyme activity, inhibitor, NADH absorbance 340 nm; pH 7.5, 25 °C, 200 µM NAD+, added: 100 µM propionaldehyde): 9500 ± 890 nM
Nc1ncc(-c2ccc3ncnc(N4CCc5cc(F)c(Cl)cc54)c3c2)cn1 — dose-normalised AUC(0-t) (CD1 mouse, plasma; intraperitoneal, 50 mg/kg): 790 mg·h/mL
Cc1cc(SCc2sc(-c3cccc(Cl)c3Cl)nc2C)ccc1OCC(=O)O — CC50 (HEK293T; 18 h): > 100000 nM
Cc1n[nH]c(C)c1CCOC(=O)c1cccc2c1oc(=O)n2C — inhibition (CYP2D6; inhibitor; 10 µM): 5.2%
Cc1ccc(NC(=O)C2CC3CCC2C3)cc1 (stereo not drawn) — IC50 (CYP2D6; enzyme activity, inhibitor): > 30000 nM
COC(=O)[C@@H]1C(c2nc3cncnc3[nH]2)=Cc2cc3c(cc2[C@H]1c1cc(OC)c(OC)c(OC)c1)OCO3 — selectivity index (Leishmania; mouse splenocytes; reference: CC50 over amastigote EC50): 1.2
CN(C)c1ccc2c(CCCOc3ccccc3)c3ccc(=[N+](C)C)cc-3sc2c1 — Km (ABCB1; ATPase activity, substrate; half-maximal ATPase stimulation): 3 µM and 3.2 µM
CCCn1c(NCc2cccc(F)c2O)nc2ccccc21 — EC50 (ALDH1A2; enzyme activity, inhibitor, NADH absorbance 340 nm; pH 7.5, 25 °C, 200 µM NAD+, added: 100 µM propionaldehyde): 1000 ± 160 nM
O=C(N[C@H](Cc1ccccc1)C(=O)O)c1sc2cc(F)ccc2c1Cl — inhibition (CYP2C19; enzyme activity; concentration not given): no effect
COc1ccc(C(=O)c2c[nH]c3ccccc23)cc1 — EC50 (AHR; reporter gene, agonist; HepG2 transfected XRE-luciferase; 4.5 h): > 10000 nM
N=c1ccc2c(-c3ccccc3)c3ccc(N)cc3sc-2c1 — Km (ABCB1; ATPase activity, substrate; half-maximal ATPase stimulation): 32 ± 3 µM

Repeated from above:
COc1ccc(NC(=O)CN2CCCN(S(=O)(=O)c3ccccc3)CC2)c(OC)c1 — IC50 (CYP2C9; enzyme activity, inhibitor): 2900 nM
COc1ccc(NC(=O)CN2CCCN(S(=O)(=O)c3ccc(C)cc3)CC2)c(OC)c1 — IC50 (CYP2D6; enzyme activity, inhibitor): 13900 nM
O=C1CN(/N=C/c2ccc(-c3ccc(Cl)cc3)o2)C(=O)N1CCCCN1CCN(CCCN2C(=O)c3cccc4cccc(c34)C2=O)CC1 — Ki (KCNH2): 80 nM
COc1ccc(NC(=O)CN2CCCN(S(=O)(=O)c3cccs3)CC2)c(OC)c1 — IC50 (CYP3A4; enzyme activity, inhibitor): 7400 nM
